Measurements gathered from unrelated publications.
Compare with care: the assays were run in different laboratories. ± marks the error that the study gave.

COc1cc(C(=O)COC(=O)CCCN)ccc1O  triplet lifetime (pump-probe transient absorption; water): 0.77 ns
CC(C)(O)c1ncc([S@](N)(=O)=NC(=O)Nc2c3c(cc4c2CCC4)CCC3)s1  AUC(0-inf) (human, plasma; oral, 30 mg, single dose, fasted, healthy volunteers): 23800 ng·h/mL
N=C(N)NCCC[C@H](NC(=O)CON=C[C@H](F)[C@@H](O)[C@H](O)[C@H](O)CO)C(=O)NCC(=O)N[C@@H](CC(=O)O)C(=O)O [fluorine-18 labelled]  tissue ratio (nude mice, U-87 MG xenograft; intravenous, 0.5 h; relative to: tumour over muscle): 3.71 ± 1.49
COc1ccc(Nc2nc(Nc3ccc(OCCOCC[18F])cc3)ncc2Br)cc1  uptake ratio (ICR mice, S180 tumour; intravenous, 370 kBq, 30 min; relative to: tumour over muscle): 2.49
Cc1ccc(OCC(=O)O)cc1  Tmax (Sprague-Dawley rat Crl:CD(SD), male, plasma; oral, 30 mg/kg/day of parent drug, day 90, 90-day repeated dosing): 1 h
CCCC[C@H](NC(=O)[C@H](CCC(=O)O)NC(=O)CNC(=O)CN1CCN(CC(=O)O)CCN(CC(=O)O)CCN(CC(=O)O)CC1)C(=O)N[C@H]1CC(=O)NCCCC[C@@H](C(N)=O)NC(=O)[C@H](Cc2c[nH]c3ccccc23)NC(=O)[C@H](CCCNC(=N)N)NC(=O)[C@@H](Cc2ccccc2)NC(=O)[C@H](Cc2c[nH]cn2)NC1=O [indium-111 labelled]  urinary excretion (C57 mouse, female, B16/F1 melanoma, urine; intravenous, 0.037 MBq, 4 h): 91.4 ± 1.85%
CC(NC(=O)OC1OC(C(=O)O)C(O)C(O)C1O)c1cc(Cl)ccc1Cn1c(=S)[nH]c(=O)c2[nH]ccc21 (centres unmarked)  exposure ratio (Sprague-Dawley rat, female, plasma; oral, 125 mg/kg/day; relative to: rat over human 10 mg): 2.5
C[C@H](Oc1cc(-c2cnn(C3CCN(CC[18F])CC3)c2)cnc1N)c1c(Cl)ccc(F)c1Cl  tracer uptake (PET imaging; nude mouse, liver; iv, 60 min post injection): 3.7 ± 1.2 %ID/cc
O=C(CCCCC[N+]#[C][99Tc-5]([C]#[N+]CCCCCC(=O)N[C@H]1C(O)O[C@H](CO)[C@@H](O)[C@@H]1O)([C]#[N+]CCCCCC(=O)N[C@H]1C(O)O[C@H](CO)[C@@H](O)[C@@H]1O)([C]#[N+]CCCCCC(=O)N[C@H]1C(O)O[C@H](CO)[C@@H](O)[C@@H]1O)([C]#[N+]CCCCCC(=O)N[C@H]1C(O)O[C@H](CO)[C@@H](O)[C@@H]1O)[C]#[N+]CCCCCC(=O)N[C@H]1C(O)O[C@H](CO)[C@@H](O)[C@@H]1O)N[C@H]1C(O)O[C@H](CO)[C@@H](O)[C@@H]1O (some centres unmarked)  tumour/muscle ratio (dynamic SPECT; nude mouse U87 MG xenograft; 55-60 min; relative to: tumour over muscle): 2.89
CCCCN1C(=O)c2cccc3c(NCCCCCN4CCOCC4)ccc(c23)C1=O  fluorescence brightness (aqueous medium; pH 6): 3130 M⁻¹ cm⁻¹
N=C(N)NCCC[C@@H]1NC(=O)[C@H](Cc2c[nH]c3ccccc23)NC(=O)[C@@H](CC2CCCCC2)NC(=O)[C@@H]2CCCN2C(=O)[C@@H](NC(=O)CCc2ccccc2)CCCNC1=O  distribution rate constant (K12) (C57BL/6J mouse, spinal cord; intravenous, 1 mg/kg, single dose, two-compartment model): 19.7 h⁻¹
O=C(O)[C@H]1O[C@@H](O[C@H](C[C@H]2c3c(F)cccc3-c3cncn32)[C@H]2CC[C@H](O)CC2)[C@H](O)[C@@H](O)[C@@H]1O  total excretion urine plus faeces (human, urine and faeces; oral, 200 mg, [14C]-navoximod dosed; relative to: dose): 59.7%
C[C@H](NC(=O)COC(=O)[C@H](C)NC(=O)CO)C(=O)O  depolymerization half-life (water; pH 6, 25 °C): 2.78 h
CCCC[C@H](NC(=O)CNC(=O)CNC(=O)CN1CCN(CC(=O)O)CCN(CC(=O)O)CCN(CC(=O)O)CC1)C(=O)N[C@H]1CC(=O)NCCCC[C@@H](C(N)=O)NC(=O)[C@H](Cc2c[nH]c3ccccc23)NC(=O)[C@H](CCCNC(=N)N)NC(=O)[C@@H](Cc2ccccc2)NC(=O)[C@H](Cc2c[nH]cn2)NC1=O [copper-64 labelled]  urinary excretion (C57 mouse, B16/F1 melanoma, urine; dose not given, 2 h): 63 % injected dose
[11CH3]c1ccc2nc(C3CCC3)n(-c3ccc4[nH]ncc4c3)c2n1  absorbed dose (extrapolated from mouse; human female, stomach wall): 6.4 µSv/MBq
CC[C@@H](C)[C@H]1NC(=O)[C@@H]([C@H](C)O)NC(=O)[C@@H](Cc2c[nH]cn2)NC(=O)CNC(=O)[C@@H](CCCNC(=N)N)NC(=O)CNC(=O)[C@@H](Cc2ccccc2)NC1=O  retina concentration (rat, retina; eye drop, 0.5% single, 3 h): 32.8 µg/g protein
[O-]c1cccc(-c2cccc([O-])n2)n1.[Ru+2].c1cnc2c(c1)ccc1cccnc12.c1cnc2c(c1)ccc1cccnc12  logP of basic form (shake flask; octanol/buffer): 1.7
Oc1ccc2ccccc2c1/N=N/c1ccc(/N=N/c2ccccc2)cc1  measured concentration (rat whole blood; 5.0 µg/L, 30 days, -20 °C, long-term storage): 5.07 µg/L
Cc1c(C(=O)Nc2ccn(C)n2)ncn1Cc1cccc(C(F)(F)F)c1  concentration at time point (C57BL/6 mice, non-transgenic, liver; oral, drinking water, 15 mg/kg daily, 10 days): 344 ± 31.3 ng/g
NC12CNCCNCC(NCc3ccc(CNC(=O)CCCC(=O)NCc4ccc(-c5nncnn5)cc4)cc3)(CNCCNC1)CNCCNC2.[64Cu+2]  mean absorbed dose (OLINDA dosimetry; breasts; pretargeting, 48-h interval): 0.0303 rad/mCi
CC[C@H](C)[C@H](NC(=O)[C@H](N)Cc1ccc(O)cc1)C(=O)N[C@H]1CSSC[C@@H](C(=O)N(C)[C@H](C(N)=O)[C@@H](C)CC)NC(=O)[C@H](CCCNC(=N)N)NC(=O)[C@H](Cc2c[nH]cn2)NC(=O)[C@H](C)NC(=O)CN(C)C(=O)[C@H](Cc2c[nH]c3ccccc23)NC(=O)[C@H](CC(=O)O)NC(=O)[C@H](CCC(N)=O)NC(=O)[C@H](Cc2cn(C)c3ccccc23)NC(=O)[C@H](C(C)C)NC1=O  recovery (UPLC-ESI-MS; cynomolgus monkey plasma; 3.58 µg/mL, 24 h, 25 °C, bench-top after SPE): 103 ± 7.8%
COCC1CN(C2CCN(c3cc(OC)c(Nc4ncc(Br)c(Nc5ccc6c(c5P(C)(C)=O)OCCO6)n4)cc3C)CC2)C1  patients with vomiting (human; oral, dose not given, sample A patients, any grade): 37%
C[C@]12C[C@H](c3ccc(S(C)(=N)=O)cc3)C3=C4CCC(=O)C=C4CC[C@H]3[C@@H]1CC[C@@]2(O)C(F)(F)C(F)(F)F (some centres unmarked)  maximal oral bioavailability (rat liver microsomes; 100 % absorption assumed): 69%
CC(=O)c1cnc(N)nc1N1CC[C@H]1c1nn2ccc(Cl)c2c(=O)n1-c1ccccc1  AUC at ED50 (female Wistar rat collagen-induced arthritis, plasma; oral, dose not given): 1420 ng·h/mL
CCCC[C@@H]1NC(=O)[C@@H](NC(=O)[C@H](CCC(=O)O)NC(=O)CNC(=O)CN2CCN(CC(=O)O)CCN(CC(=O)O)CCN(CC(=O)O)CC2)CCCCNC(=O)C[C@@H](C(N)=O)NC(=O)[C@H](C(C)C)NC(=O)[C@@H]2CCCN2C(=O)[C@H](CCCNC(=N)N)NC(=O)CNC(=O)[C@H](Cc2c[nH]c3ccccc23)NC(=O)[C@H](CCCNC(=N)N)NC(=O)[C@@H](Cc2ccccc2)NC(=O)[C@H](Cc2c[nH]cn2)NC(=O)[C@H](CCC(=O)O)NC1=O [gallium-67 labelled]  lung uptake (normal C57 mice; intravenous, 0.037 MBq, 4 h): 0.17 ± 0.11 %ID/g
NC[C@@H](C(=O)Nc1ccc(-c2cn[nH]c2)cc1)c1ccccc1  cornea score (OECD 405 eye irritation; New Zealand White rabbit, eye; topical, 0.1%, 48 h (day 3), scale 0 to 4; direction not given): 0
COc1cc(NC(C)=O)c2c(c1O)-c1c(OC)c(OC)cc3c1C(C2)N(C)CC3 (centres unmarked)  remaining compound (rat brain homogenate; 100 µg/mL, 24 h, room temperature, post-preparative storage): 95.3 ± 2.3%
CC(C)[C@H](NC(=O)[C@@H]1CCCN1C(=O)[C@H](CCCNC(=N)N)NC(=O)[C@H](CS)NC(=O)[C@H](Cc1c[nH]c2ccccc12)NC(=O)[C@H](CCCNC(=N)N)NC(=O)[C@@H](Cc1ccccc1)NC(=O)[C@H](Cc1c[nH]cn1)NC(=O)[C@H](CCC(=O)O)NC(=O)[C@H](CS)NC(=O)[C@H](CS)NC(=O)[C@@H]1CC(=O)N[C@@H](CCCNC(=N)N)C(=O)NCC(=O)N[C@@H](CC(=O)O)C(=O)N[C@H](Cc2ccc(O)cc2)C(=O)N1)C(N)=O [technetium-99m labelled]  tumour-to-tissue ratio (C57 mice B16/F1 melanoma female; iv, 2 h, together with: NDP-MSH blockade; relative to: tumour over blood): 5.8
CCOc1ccc2c(c1)C(C)CC(C)(C)N2 (centres unmarked)  tissue residue (LC-MS/MS; laying hens, kidney; oral in feed, 50 mg/kg feed ethoxyquin, 56 days): 1.9 ± 1.3 ng/g

A few entries again:
CCCC[C@H](NC(=O)[C@H](CCC(=O)O)NC(=O)CNC(=O)CN1CCN(CC(=O)O)CCN(CC(=O)O)CCN(CC(=O)O)CC1)C(=O)N[C@H]1CC(=O)NCCCC[C@@H](C(N)=O)NC(=O)[C@H](Cc2c[nH]c3ccccc23)NC(=O)[C@H](CCCNC(=N)N)NC(=O)[C@@H](Cc2ccccc2)NC(=O)[C@H](Cc2c[nH]cn2)NC1=O [indium-111 labelled]  urinary excretion (C57 mouse, female, B16/F1 melanoma, urine; intravenous, 0.037 MBq, 4 h): 91.4 ± 1.85%
CCOc1ccc2c(c1)C(C)CC(C)(C)N2 (centres unmarked)  tissue residue (LC-MS/MS; laying hens, kidney; oral in feed, 50 mg/kg feed ethoxyquin, 56 days): 1.9 ± 1.3 ng/g
